Results from different studies.
Lines come from different studies, so protocols differ. “And” joins repeats or separate records; there may be more than shown.

`Cn1cc(-c2ccc(-c3cncc(Cl)c3N3CCC4(CCNC4=O)CC3)cc2)cn1` — result for “log2 fold change”: 1.4 (COLO 205; gene expression, microarray, measured: ICAM1 mRNA; concentration not given, 6 h; relative to: untreated cells).
For `COc1cnc2cccc(N3CCc4c(cc(Cn5ccnc5C)cc4-c4cn(C)nc4C(F)(F)F)C3=O)c2c1`, the EC50 was > 30 µM (HCC78; cell growth, inhibitor; 120 h).
`OC(CCN1CCCCC1)(c1ccccc1)C1CC2C=CC1C2` (stereo not drawn) — result for “change in EEG Alpha2-power Pz-O1”: 28.5% (resting-state EEG; healthy elderly humans; oral, 2 mg, eyes closed, LS mean; relative to: baseline).
The sarcomere length of `O=C(O)CNC(=O)Cc1ccccc1` is reported as 1.72 µm (ventricular cardiomyocytes, C57BL/6 mouse; dose not given, 0.052 s).
For `O=C(O)CNC(=O)c1ccccc1`, “log2 fold change” read -0.54 (binding, MIDAS equilibrium dialysis LC-MS; A2AR-BRIL thermostabilized; concentration not given; relative to: no-protein control).
The EC50 of `CCn1cc(-c2cc(Cn3ccnc3)cc3c2CCN([C@H](c2cc(OC)ccn2)C2CC2)C3=O)c(C(F)(F)F)n1` is reported as 24.7 µM (LS-123; cell growth, inhibitor; 120 h).
`O=C(O)Cc1cc(O)ccc1O` — result for “log2 fold change”: -1.42 (binding, MIDAS equilibrium dialysis LC-MS; A2AR-BRIL thermostabilized; concentration not given; relative to: no-protein control).
`CCn1cc(-c2cc(Cn3ccoc3=N)cc3c2CCN([C@@H](C)c2cc(OC)ccn2)C3=O)c(C(F)(F)F)n1` has an EC50 of 0.15 µM (HT55; cell growth, inhibitor; 120 h).
For `CC(C)C[C@@H](O)C(=O)O`, “log2 fold change” read -0.557 (binding, MIDAS equilibrium dialysis LC-MS; A2AR-BRIL thermostabilized; concentration not given; relative to: no-protein control).
Under “cells with nuclear reporter”, `CC[S+]([O-])c1nc(-c2ccccc2)cc(C(F)(F)F)n1` (stereo not drawn) is recorded as 95.7% and 94.1% (transportin-1/2; FUS nuclear import, high content imaging; HeLa Kyoto reporter; 5 µM, 2 h).
`CSc1cc(Oc2ccnc3[nH]c(=O)cnc23)ccc1NC(=O)Nc1cc(C(C)(C)C)nn1-c1ccccc1` has a phospho ratio of 0.46 (patient-derived cell line; RPPA, measured: phosphorylated SAPK/JNK; human; 1 µM, 4 h; relative to: DMSO).
`COc1ccc2[nH]cc(CC(=O)O)c2c1`: “log2 fold change” -0.175 (binding, MIDAS equilibrium dialysis LC-MS; A2AR-BRIL thermostabilized; concentration not given; relative to: no-protein control).

A few entries again:
For `O=C(O)CNC(=O)c1ccccc1`, “log2 fold change” read -0.54 (binding, MIDAS equilibrium dialysis LC-MS; A2AR-BRIL thermostabilized; concentration not given; relative to: no-protein control).
The EC50 of `CCn1cc(-c2cc(Cn3ccnc3)cc3c2CCN([C@H](c2cc(OC)ccn2)C2CC2)C3=O)c(C(F)(F)F)n1` is reported as 24.7 µM (LS-123; cell growth, inhibitor; 120 h).
